Published values collected from several papers.
Each numbered part is a random draw from the data of one study; scales do not carry over between parts. Positions count from the first letter of the parent shown.

Study 1 — method: RNA Bind-n-Seq; form: RNA; medium: in vitro; tested at: 20 nM; notes: 6-mer, flanks averaged, single round; together with: 150 mM KCl; baseline: input library; reading: higher = stronger binding; measurement: 6-mer enrichment (R)
Target: TAR DNA-binding protein 43, full length, His tag (TARDBP, Homo sapiens, UniProt Q13148, residues 1-414)
UGAACC: 0.668
AUAAGU: 0.706
GGCUCU: 0.853
AUAUGC: 0.664
GACUGU: 0.901
GGGAUC: 1.79
UGCUCC: 0.625
UCGCCC: 0.62
CUUAUG: 0.638
UGUCGG: 1.35
AAUGCC: 0.668
AUCUCU: 0.539
CGCAGU: 0.816
UUUCAU: 0.559
GCAAAA: 0.792
GCCACU: 0.701

Study 2 — method: protein-binding microarray; form: double-stranded DNA, one strand shown; medium: in vitro; tested at: 2540 nM top; notes: 60-bp whole probe; together with: salmon DNA 0.4 mg/ml; baseline: random background probes; reading: higher = stronger binding; measurement: fitted relative affinity; shared flanks, not repeated: GCCTAGCAC … GTCTTGATTCGCTTGACGCTGCTG
Target: Interferon regulatory factor 3, full length, phosphomimetic (IRF3, Homo sapiens, UniProt Q14653, residues 1-427, S386D/S396D/S398D/S402D/T404D/S405D)
Residues (chain): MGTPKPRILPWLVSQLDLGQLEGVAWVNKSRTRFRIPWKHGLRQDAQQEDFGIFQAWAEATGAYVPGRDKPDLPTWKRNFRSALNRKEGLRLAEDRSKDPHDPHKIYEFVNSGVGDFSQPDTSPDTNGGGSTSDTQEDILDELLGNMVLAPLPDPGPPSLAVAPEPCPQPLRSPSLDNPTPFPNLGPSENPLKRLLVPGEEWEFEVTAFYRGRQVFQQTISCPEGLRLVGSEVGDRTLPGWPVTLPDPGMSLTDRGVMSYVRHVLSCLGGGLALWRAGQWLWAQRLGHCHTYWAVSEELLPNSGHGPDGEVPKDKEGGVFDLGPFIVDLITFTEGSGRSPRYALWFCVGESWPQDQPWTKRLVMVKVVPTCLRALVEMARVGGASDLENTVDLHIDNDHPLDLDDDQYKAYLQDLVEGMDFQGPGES
CTTTATGTCCTGTCTACATGGGTGCTA: 1.85 z-score
TTAGGACTGGGGTTTCGGTTAGTGCTA: 2.41 z-score
TTAGATATCAGTCCCGATTAGTGCTAG: 0.454 z-score
TCACTTCCCAATTCTCTTACTGTGCTA: 3.28 z-score
TTAAGTCTCCTTCTCCTTTAGTGCTAG: 5.39 z-score
GACGGTATTGGTATCGGGACGTGCTAG: 1.5 z-score
TTAGGCTTCGGTATCGGTTAGTGCTAG: 1.91 z-score
GACGGTTTCCTACTGATGACGTGCTAG: 4.79 z-score
TTAGGTCTCCTCATCCTTTAGTGCTAG: 0.58 z-score
TCATTTCTCATTCGTCATACTGTGCTA: 2.77 z-score
GACAGTTTCGACTATCGGGACGTGCTA: 2.77 z-score
TGTTTCCTCTTTCTTTGCTTGTGCTAG: 6.33 z-score
GTGTGTTTGAGTCTTCTCCTGTGCTAG: -0.458 z-score
TTAGGTTTCGATATCGGTTAGTGCTAG: 6.69 z-score
GAAGGTCTCGGACTGGGGACGTGCTAG: -0.659 z-score
TTAGGTCTCCTTCGCCTTTAGTGCTAG: 0.148 z-score
GGTCCTCTAGGAATGTAACTGTGCTAG: 0.15 z-score
ACAGCCTTTCTAACTTGAAAGTGCTAG: 1.66 z-score
GCAACACTCACCATGGCTAGGTGCTAG: 0.041 z-score
TACGGTATCGACTATCGGGACGTGCTA: 0.532 z-score
GACGATATCGGGACTCGAGACGTGCTA: 0.115 z-score
GTAGGTATCCTTATCCTTTAGTGCTAG: 5.43 z-score
TTAGGACTCGGGACTGGGTTAGTGCTA: -0.959 z-score
GACGGTACCGGTTTCGGGACGTGCTAG: 4.08 z-score
TTAGATCTCGGACTGGATTAGTGCTAG: -0.217 z-score

Study 3 — method: RNA Bind-n-Seq; form: RNA; medium: in vitro; tested at: 1 µM; notes: whole 134-nt RNA, ends assumed; together with: 150 mM KCl; baseline: input library; reading: higher = stronger binding; measurement: log2 enrichment
Target: Ras GTPase-activating protein-binding protein 1, RRM domain (G3BP1, Homo sapiens, UniProt Q13283)
UniProt Q13283, sequence (whole entry, looked up): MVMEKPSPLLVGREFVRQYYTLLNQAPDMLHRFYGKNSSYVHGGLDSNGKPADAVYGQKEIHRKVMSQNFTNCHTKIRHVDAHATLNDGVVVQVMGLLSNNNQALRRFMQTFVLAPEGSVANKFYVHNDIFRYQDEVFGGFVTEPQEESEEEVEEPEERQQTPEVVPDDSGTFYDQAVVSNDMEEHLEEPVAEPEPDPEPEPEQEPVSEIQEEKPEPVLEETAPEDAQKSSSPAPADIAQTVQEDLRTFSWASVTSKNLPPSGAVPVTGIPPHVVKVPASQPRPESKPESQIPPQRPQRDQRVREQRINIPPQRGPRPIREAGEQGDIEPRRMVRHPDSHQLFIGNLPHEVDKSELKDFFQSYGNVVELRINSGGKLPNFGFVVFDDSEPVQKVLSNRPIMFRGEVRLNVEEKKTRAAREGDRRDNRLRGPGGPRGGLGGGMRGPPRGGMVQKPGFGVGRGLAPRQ
Shared flanks, not repeated: GGGAGUUCUACAGUCCGACGAUC … UGGAAUUCUCGGGUGUCAAGG
UCAAGUCCUGUGCUACACAUCGUAUGUACCGAAUCGGUGGAAAAAAAGGAAAGGAAAGUAUUAUGUUACGCCGUUCGGAUCUGCACUUCC: -0.0903
CAAGUCCUGUGCUACACAUCGUAUGUACCGAAUCGGCCCCGGGCCCCGGGCCCCGGAAAGUAUUAUGUUACGCCGUUCGGAUCUGCACUU: -1.29
UCAAGUCCUGUGCUACACAUCGUAUGUACCGAAUCGGGGUUGGGUUGGGUUGGGAAAGUAUUAUGUUACGCCGUUCGGAUCUGCACUUCC: 0.591
CAAGUCCUGUGCUACACAUCGUAUGUACCGAAUCGGGGUUUGGGUUUGGGUUUGGAAAGUAUUAUGUUACGCCGUUCGGAUCUGCACUUC: -0.485
CAAGUCCUGUGCUACACAUCGUAUGUACCGAAUCGGCCCCGGCCCCGGCCCCGGGAAAGUAUUAUGUUACGCCGUUCGGAUCUGCACUUC: -1.43
UGGGAGGUGGAUCUUGUUUAUUUUUUUAGCUCAUUUCCAGGGGUGGGAAUUUUUUUUUAAUAUGUGUCAUGAAUAAAGUUGUUUUUGAAA: 1.63
UCCUGUGCUACACAUCGUAUGUACCGAAUCGGGGUUUGGGGUUUUUGGGGUUUUUGGGGAAAGUAUUAUGUUACGCCGUUCGGAUCUGCA: 1.58
UCCUGUGCUACACAUCGUAUGUACCGAAUCGGUUUUUUUGGAAAAAAAGGAAAAAAAGGAAAGUAUUAUGUUACGCCGUUCGGAUCUGCA: -0.142
GUCCUGUGCUACACAUCGUAUGUACCGAAUCGGGGAAAAAAAGGGGUUUGGGGAGGGGAAAGUAUUAUGUUACGCCGUUCGGAUCUGCAC: 1.23
CAAGUCCUGUGCUACACAUCGUAUGUACCGAAUCGGGAAAAAGGGAGGGAAAGGGAAAGUAUUAUGUUACGCCGUUCGGAUCUGCACUUC: 0.827
UGGGAGGUGGAUUUUGUUUAUUUUUUUAUCUCAUUUCCAGGGGUGGGAAUUUUUUUUUAAUAUGUGUCAUGAAUAAAGUUGUUUUUGAAA: 2.41
CUGUGCUACACAUCGUAUGUACCGAAUCGGGGCCCCCCCGGGCCCCCCCGGCCCCCCCGGGAAAGUAUUAUGUUACGCCGUUCGGAUCUG: -0.66
UUCCUCAAGUCCUGUGCUACACAUCGUAUGUACCGAAUCGGCGGCGGGCGGAAAGUAUUAUGUUACGCCGUUCGGAUCUGCACUUCCAGC: -0.247
AAGUCCUGUGCUACACAUCGUAUGUACCGAAUCGGAAAAAGGUUUUUGGUUUUUGGAAAGUAUUAUGUUACGCCGUUCGGAUCUGCACUU: -0.396

Study 4 — target: CRIPT, C-terminal peptide; method: DHFR complementation, deep sequencing; medium: yeast; baseline: wild type; reading: higher = weaker binding; measurement: binding free energy change
Notes: single substitutions, model-inferred values
Parent: ERBIN, PDZ domain 1 (human); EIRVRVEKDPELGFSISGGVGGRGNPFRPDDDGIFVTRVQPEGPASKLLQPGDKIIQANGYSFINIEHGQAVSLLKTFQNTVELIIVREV; partner TKNYKQTSV
D53L: 0.948 kcal/mol
L74C: 0.101 kcal/mol
Q57N: 0.0685 kcal/mol
G21E: -0.0433 kcal/mol
F35C: 0.946 kcal/mol
K47H: 0.135 kcal/mol
V87P: 1.35 kcal/mol
D30A: 0.164 kcal/mol
P26F: 0.554 kcal/mol
E89K: 0.0881 kcal/mol
G18Q: 1.71 kcal/mol
F78D: 0.178 kcal/mol
Y61A: -0.0538 kcal/mol
D53Y: 0.628 kcal/mol
R88S: 0.429 kcal/mol
L74S: 0.17 kcal/mol
A58L: 1.06 kcal/mol
A58K: 0.83 kcal/mol
E89R: 0.105 kcal/mol
K8A: 0.822 kcal/mol
E42A: -0.0364 kcal/mol
S15P: 0.426 kcal/mol
A45V: 0.659 kcal/mol
L49T: -0.0555 kcal/mol
R28W: 0.0199 kcal/mol

Study 5 — method: protein-binding microarray; form: double-stranded DNA, one strand shown; medium: in vitro; tested at: 0.8 µM; notes: whole 60-bp probe, no competitor; reading: higher = stronger binding; measurement: fluorescence intensity; shared flanks, not repeated: … GTCTTGATTCGCTTGACGCTGCTG
Target: Centromere-binding protein 1, full length, N-terminal tag (CBF1, Saccharomyces cerevisiae, UniProt P17106, residues 1-351)
UniProt P17106, sequence (whole entry, looked up): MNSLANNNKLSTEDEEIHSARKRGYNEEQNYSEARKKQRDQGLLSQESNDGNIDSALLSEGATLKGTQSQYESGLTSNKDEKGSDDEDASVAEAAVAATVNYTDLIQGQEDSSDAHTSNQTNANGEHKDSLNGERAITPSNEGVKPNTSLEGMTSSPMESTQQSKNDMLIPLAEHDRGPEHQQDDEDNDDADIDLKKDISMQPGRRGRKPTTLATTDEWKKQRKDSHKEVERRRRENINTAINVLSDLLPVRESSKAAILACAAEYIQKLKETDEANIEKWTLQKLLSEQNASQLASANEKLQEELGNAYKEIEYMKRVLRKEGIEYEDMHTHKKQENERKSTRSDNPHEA
GAATAACAATACCATTACATCAGCCGATAATATTAG: 543 a.u.
CTATTGAGAAAACAACACGTTTACTTGTAGAGTTTC: 576 a.u.
CTAGCCACAAGTACTCAGGTGTCCTATGAAGCATTC: 539 a.u.
CCTAACTACTATAATCACCAGTAATAGCTTCGTACA: 510 a.u.
TGTACGAAGCTATATCATGTAACTATAGTAGTTAGG: 510 a.u.
TGTACGAAGCTATGACACGTGGGTATAGTAGTTAGG: 3800 a.u.
GAATTGCATCAACATGATGCAAAAAGTCGAAATTAG: 563 a.u.
GAAGCCAAGCGCCGTCACCCTTTCATATTAAAATAG: 491 a.u.
CTACAGTTTTCCACATCCGTGATTTGGCGCAAATTC: 582 a.u.
CTATGCTGTATCGCCCACGTTCTTGTTGTAGATTTC: 566 a.u.
GAAAACGATGGACGTGGTGTGTGAATGTGCTACTAG: 511 a.u.
GAAAGGTAACCGCATCACGACTTATCGCATTTCTAG: 560 a.u.
GAAATCACGCTTCATCACCTGAGAAAAGTAACATAG: 896 a.u.
GAAGACCTAAACAACCACACGGGGTTAAGCAAGTAG: 545 a.u.
GAAAGTGTCAACGTCCATCTGATATACTATTAGTAG: 592 a.u.
GAATCTGTGCTTACTCACGTGAAAGAGAGGGAATAG: 3300 a.u.
CTATTTTTGCCCTTTCGGGTGATCAAAGTCGTGTTC: 588 a.u.
CTATAGTATAAGAATCACATGTTTTCCATTCTTTTC: 2060 a.u.
CCTAACTACTATATGCACGTTTAATAGCTTCGTACA: 544 a.u.

Study 6 — method: universal PBM; form: double-stranded DNA, one strand shown; medium: in vitro; tested at: 600 nM; reading: higher = stronger binding; measurement: E-score
Target: Sal-like protein 4, full length isoform A (SALL4, Homo sapiens, UniProt Q9UJQ4, residues 1-1053)
UniProt Q9UJQ4, sequence (whole entry, looked up): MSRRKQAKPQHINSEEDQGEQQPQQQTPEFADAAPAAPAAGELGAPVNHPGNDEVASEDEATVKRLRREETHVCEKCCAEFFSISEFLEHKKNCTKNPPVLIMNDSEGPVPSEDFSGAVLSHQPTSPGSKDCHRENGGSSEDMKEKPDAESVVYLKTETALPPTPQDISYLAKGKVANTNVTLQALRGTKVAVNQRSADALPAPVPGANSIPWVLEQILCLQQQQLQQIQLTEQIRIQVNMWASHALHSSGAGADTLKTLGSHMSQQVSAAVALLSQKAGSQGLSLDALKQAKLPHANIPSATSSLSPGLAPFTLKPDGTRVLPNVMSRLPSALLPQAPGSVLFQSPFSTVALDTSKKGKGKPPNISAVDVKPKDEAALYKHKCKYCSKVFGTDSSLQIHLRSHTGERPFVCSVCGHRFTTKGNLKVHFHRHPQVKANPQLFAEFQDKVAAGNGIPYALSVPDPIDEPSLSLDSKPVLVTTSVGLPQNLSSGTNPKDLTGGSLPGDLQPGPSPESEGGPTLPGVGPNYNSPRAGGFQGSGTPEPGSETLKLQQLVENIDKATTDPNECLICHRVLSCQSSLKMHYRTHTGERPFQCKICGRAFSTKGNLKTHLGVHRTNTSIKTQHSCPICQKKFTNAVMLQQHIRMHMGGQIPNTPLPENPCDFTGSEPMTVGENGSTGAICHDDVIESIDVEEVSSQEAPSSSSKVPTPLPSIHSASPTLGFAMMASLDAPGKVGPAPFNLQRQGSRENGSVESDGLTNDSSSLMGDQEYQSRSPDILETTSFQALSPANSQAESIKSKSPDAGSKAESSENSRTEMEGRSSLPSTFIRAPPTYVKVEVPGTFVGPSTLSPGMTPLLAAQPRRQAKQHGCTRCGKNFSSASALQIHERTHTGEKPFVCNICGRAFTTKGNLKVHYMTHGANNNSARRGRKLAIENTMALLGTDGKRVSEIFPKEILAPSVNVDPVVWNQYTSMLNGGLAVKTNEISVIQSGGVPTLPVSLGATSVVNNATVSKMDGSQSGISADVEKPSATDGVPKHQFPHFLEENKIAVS
Notes: 8-mer, flanks averaged, mean of replicates
AGGTACAT: 0.0872
GTCGAGAC: -0.0121
ATCAGTTC: -0.071
CTCTGCTA: -0.101
GCTGACCC: -0.223
CGCGATAG: -0.105
GGATTGCC: -0.305
CAGATGCC: -0.233
GACTTCGC: -0.186
GTAAGGAC: -0.161
GATCTAAA: 0.224
AGGTATGG: -0.0861
AAAAATAG: 0.374
CTCCCTTA: -0.0572
GGTCGATA: -0.011
ACGTTCCT: 0.153
ATTTCATG: 0.134
AGTATCAT: 0.187
CCTCCGCG: -0.335
GGGGTTTA: -0.0756
AGTCAGAT: 0.0925
GGGAGTAC: -0.202

Some of these lines once more (study 3):
UCCUGUGCUACACAUCGUAUGUACCGAAUCGGUUUUUUUGGAAAAAAAGGAAAAAAAGGAAAGUAUUAUGUUACGCCGUUCGGAUCUGCA: -0.142
AAGUCCUGUGCUACACAUCGUAUGUACCGAAUCGGAAAAAGGUUUUUGGUUUUUGGAAAGUAUUAUGUUACGCCGUUCGGAUCUGCACUU: -0.396
CAAGUCCUGUGCUACACAUCGUAUGUACCGAAUCGGCCCCGGCCCCGGCCCCGGGAAAGUAUUAUGUUACGCCGUUCGGAUCUGCACUUC: -1.43
CAAGUCCUGUGCUACACAUCGUAUGUACCGAAUCGGGAAAAAGGGAGGGAAAGGGAAAGUAUUAUGUUACGCCGUUCGGAUCUGCACUUC: 0.827
CAAGUCCUGUGCUACACAUCGUAUGUACCGAAUCGGGGUUUGGGUUUGGGUUUGGAAAGUAUUAUGUUACGCCGUUCGGAUCUGCACUUC: -0.485
UGGGAGGUGGAUCUUGUUUAUUUUUUUAGCUCAUUUCCAGGGGUGGGAAUUUUUUUUUAAUAUGUGUCAUGAAUAAAGUUGUUUUUGAAA: 1.63
CUGUGCUACACAUCGUAUGUACCGAAUCGGGGCCCCCCCGGGCCCCCCCGGCCCCCCCGGGAAAGUAUUAUGUUACGCCGUUCGGAUCUG: -0.66
UCCUGUGCUACACAUCGUAUGUACCGAAUCGGGGUUUGGGGUUUUUGGGGUUUUUGGGGAAAGUAUUAUGUUACGCCGUUCGGAUCUGCA: 1.58
UGGGAGGUGGAUUUUGUUUAUUUUUUUAUCUCAUUUCCAGGGGUGGGAAUUUUUUUUUAAUAUGUGUCAUGAAUAAAGUUGUUUUUGAAA: 2.41
UCAAGUCCUGUGCUACACAUCGUAUGUACCGAAUCGGUGGAAAAAAAGGAAAGGAAAGUAUUAUGUUACGCCGUUCGGAUCUGCACUUCC: -0.0903
GUCCUGUGCUACACAUCGUAUGUACCGAAUCGGGGAAAAAAAGGGGUUUGGGGAGGGGAAAGUAUUAUGUUACGCCGUUCGGAUCUGCAC: 1.23
